Measurements gathered from unrelated publications.
Parts stem from different laboratories: compare values within a part only. Changes are numbered by the printed parent chain.

Series 1 — method: protein-binding microarray; molecule type: double-stranded DNA, one strand shown; matrix: in vitro; concentration: not given; reading: higher = stronger binding; endpoint: E-score
Target: Transcriptional repressor CTCF (CTCF, Homo sapiens, UniProt P49711, residues 1-727, full length assumed)
Setting: k-mer, scored over probes, only values ≥0.25
Target sequence (chain): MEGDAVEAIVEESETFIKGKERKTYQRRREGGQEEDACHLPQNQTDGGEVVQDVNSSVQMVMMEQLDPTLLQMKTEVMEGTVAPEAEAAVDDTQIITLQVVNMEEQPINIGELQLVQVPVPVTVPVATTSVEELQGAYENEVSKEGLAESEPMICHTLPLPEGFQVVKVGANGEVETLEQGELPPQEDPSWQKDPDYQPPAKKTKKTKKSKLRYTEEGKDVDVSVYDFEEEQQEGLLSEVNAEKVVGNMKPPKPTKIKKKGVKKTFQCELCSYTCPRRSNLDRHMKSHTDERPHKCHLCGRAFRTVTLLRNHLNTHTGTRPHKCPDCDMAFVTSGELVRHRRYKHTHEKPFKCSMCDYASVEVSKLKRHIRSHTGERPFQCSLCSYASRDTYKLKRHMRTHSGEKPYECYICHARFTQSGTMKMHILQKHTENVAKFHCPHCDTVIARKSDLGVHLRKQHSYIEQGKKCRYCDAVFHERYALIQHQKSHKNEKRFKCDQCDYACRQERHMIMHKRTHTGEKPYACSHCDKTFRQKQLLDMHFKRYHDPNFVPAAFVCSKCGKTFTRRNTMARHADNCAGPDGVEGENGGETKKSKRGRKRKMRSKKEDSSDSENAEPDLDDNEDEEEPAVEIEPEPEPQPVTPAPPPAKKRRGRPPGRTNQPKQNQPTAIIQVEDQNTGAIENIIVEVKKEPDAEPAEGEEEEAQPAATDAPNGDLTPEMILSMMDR
Oligonucleotide = AACTAGCG; result = 0.255
Oligonucleotide = ACAATTAC; result = 0.268
Oligonucleotide = TATACTGA; result = 0.261
Oligonucleotide = TAAATTAA; result = 0.331
Oligonucleotide = ATACGTAA; result = 0.263
Oligonucleotide = AGCGCCCT; result = 0.255
Oligonucleotide = ATGTTAAC; result = 0.281

Series 2 — target: CCNB3, cyclin fold, Cln2 fusion (human); method: yeast growth competition, sequencing; matrix: yeast; setting: weak parent motif; relative to: not given; reading: higher = stronger binding; endpoint: normalised enrichment score
Starting sequence: CDC6 docking peptide (human); TLKGRRLVFDNQL; partner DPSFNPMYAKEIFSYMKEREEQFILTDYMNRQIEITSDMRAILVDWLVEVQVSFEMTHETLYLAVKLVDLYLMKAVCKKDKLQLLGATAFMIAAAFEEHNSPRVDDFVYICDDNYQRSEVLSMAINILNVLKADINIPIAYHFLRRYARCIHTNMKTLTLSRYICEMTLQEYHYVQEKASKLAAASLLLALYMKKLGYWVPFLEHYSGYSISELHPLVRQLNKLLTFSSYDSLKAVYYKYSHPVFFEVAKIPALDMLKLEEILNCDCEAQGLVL
Variant = L13I; result = -0.0463
Variant = R5A; result = 0.665
Variant = L13G; result = 0.257
Variant = R5W; result = 1.73
Variant = T1G; result = 0.241
Variant = L13A; result = 0.447

Series 3 — method: DHFR PCA, deep sequencing; matrix: yeast; with: (+)-ABA 710 µM; relative to: wild-type fitted maximum; reading: higher = stronger binding; endpoint: relative binding score
Target: ABI1, truncated, D143A, DHFR fusion (Arabidopsis thaliana)
Setting: methotrexate growth selection, single substitutions
Starting sequence: PYL1, truncated, DHFR fusion (Arabidopsis thaliana); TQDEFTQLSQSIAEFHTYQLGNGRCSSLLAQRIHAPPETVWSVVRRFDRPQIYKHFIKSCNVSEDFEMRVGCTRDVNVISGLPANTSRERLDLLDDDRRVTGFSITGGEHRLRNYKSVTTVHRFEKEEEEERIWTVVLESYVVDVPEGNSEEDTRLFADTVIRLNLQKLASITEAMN; partner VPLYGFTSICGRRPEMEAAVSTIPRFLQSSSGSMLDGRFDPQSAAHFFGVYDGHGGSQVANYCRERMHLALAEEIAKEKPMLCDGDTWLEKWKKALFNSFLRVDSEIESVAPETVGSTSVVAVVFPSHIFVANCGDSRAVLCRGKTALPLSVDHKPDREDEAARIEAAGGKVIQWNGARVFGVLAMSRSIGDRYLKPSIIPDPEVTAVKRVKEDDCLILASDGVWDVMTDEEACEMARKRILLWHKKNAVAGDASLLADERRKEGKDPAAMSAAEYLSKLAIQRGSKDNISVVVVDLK
Variant = R90A; result = 86.6%
Variant = C72M; result = 99.2%
Variant = S9A; result = 106%
Variant = V145W; result = 46.8%
Variant = E4F; result = 91.6%
Variant = A13H; result = 97.6%

Other studies, line by line
Molecule = PhoQ, residues 284 288 289 292 302 303 SLCLSL; target = PhoP, residues 12 14 15 18 19 MHTVL (Escherichia coli, UniProt P23836); assay = Sort-seq, measured: YFP reporter; test system = E. coli; conditions = PhoQ-PhoP variant library, with: 10 µM Mg2+; how to read = relative to: high Mg2+ state, higher = stronger signaling; endpoint = fold induction; result = 1.42

For quick reference, copied from above (series 3):
Variant = S9A; result = 106%
Variant = V145W; result = 46.8%
